Results from different studies.
Compare with care: the assays were run in different laboratories.
Cell line: CCRF-CEM
Observed: cell growth or viability

SMILES = C(=C/c1ccccc1)/c1ccccc1; method = ATP luminescence; time = 24 h; IC50 = 53 µM
SMILES = C[C@H]1C(OC(=O)CCC(=O)O)O[C@@H]2O[C@@]3(C)CC[C@H]4[C@H](C)CCC1[C@@]24OO3 (some centres unmarked); method = XTT; IC50 = 0.55 µM
SMILES = CC1(C)CCC(CN2CCN(c3ccc(C(=O)NS(=O)(=O)c4ccc(NCC5COCCO5)c([N+](=O)[O-])c4)c(N4CCCOc5nc6[nH]ccc6cc54)c3)CC2)=C(c2ccc(Cl)cc2)C1 (centres unmarked); method = ATP luminescence; time = 24 h; IC50 = 0.98 µM
SMILES = COc1ccc(C[C@H]2COC(=O)[C@@H]2Cc2ccc(OCCCCCCCC(=O)NO)c(OC)c2)cc1OC; method = CCK-8; time = 48 h; IC50 = 1.35 µM
SMILES = OC[C@H]1[C@@H](O)[C@@H](O)CN1Cc1ccc(Br)cc1; method = MTS; time = 72 h; IC50 = 94 µM
SMILES = COc1ccc(C[C@H]2COC(=O)[C@@H]2Cc2ccc(OCCCCCCCCCC(=O)NO)c(OC)c2)cc1OC; method = CCK-8; time = 48 h; IC50 = > 5 µM
SMILES = O=c1[nH]c(=O)n([C@@H]2O[C@H](CSSc3ccccn3)[C@@H](O)[C@H](F)[C@H]2O)cc1F; IC50 = 43 µM
SMILES = O=[N+]([O-])c1ccc(/C=N/NC(=S)Nc2ccccc2)s1; IC50 = 6.4 µM
SMILES = Cc1cn([C@@H]2O[C@H](CSSC[C@H]3O[C@@H](n4cc(C)c(=O)[nH]c4=O)[C@H](O)[C@@H](F)[C@@H]3O)[C@@H](O)[C@H](F)[C@H]2O)c(=O)[nH]c1=O; IC50 = > 500 µM
SMILES = O=[N+]([O-])c1ccc(NC(=S)N/N=C/c2cccs2)cc1; IC50 = 27 µM
SMILES = O=c1ccn([C@@H]2O[C@H](CO)[C@@H](O)[C@H](F)[C@H]2O)c(=O)[nH]1; IC50 = > 200 µM
SMILES = CC(C)COC1O[C@@H]2O[C@@]3(C)CC[C@H]4[C@H](C)CCC([C@H]1C)[C@@]24OO3 (some centres unmarked); method = XTT; IC50 = 16.7 µM
SMILES = O=C(Nc1ncnc2c1ncn2[C@@H]1O[C@H](CO)[C@@H](O)[C@H](F)[C@H]1O)c1ccccc1; IC50 = 120 µM
SMILES = COc1ccc(-c2cc(=O)c3c(O)cc(O[C@@H]4O[C@H](CO)[C@@H](O)[C@H](O)[C@H]4O)cc3o2)cc1OC; method = resazurin; time = 72 h; IC50 = 58.5 µM

Repeated from above:
SMILES = COc1ccc(C[C@H]2COC(=O)[C@@H]2Cc2ccc(OCCCCCCCCCC(=O)NO)c(OC)c2)cc1OC; method = CCK-8; time = 48 h; IC50 = > 5 µM
SMILES = O=c1[nH]c(=O)n([C@@H]2O[C@H](CSSc3ccccn3)[C@@H](O)[C@H](F)[C@H]2O)cc1F; IC50 = 43 µM
